Published values of several laboratories.
Lines come from different studies, so protocols differ. ± marks the error that the study gave.

| SMILES | test | system | conditions | scale | endpoint | value |
| --- | --- | --- | --- | --- | --- | --- |
| CCCCCCCCCCCCCCCC(=O)N[C@@H](CCC(=O)NCCOCCOCCC(=O)NCCOCCOCCC(=O)NCCCC[C@H](NC(=O)[C@H](CC(=O)O)NC(=O)[C@H](CC(C)C)NC(=O)[C@H](Cc1ccc(O)cc1)NC(=O)[C@H](CCCCN)NC(=O)[C@H](CO)NC(=O)[C@H](Cc1ccc(O)cc1)NC(=O)[C@H](CC(=O)O)NC(=O)[C@H](CO)NC(=O)[C@@H](NC(=O)[C@H](Cc1ccccc1)NC(=O)[C@@H](NC(=O)CNC(=O)[C@H](CCC(N)=O)NC(=O)[C@@H](CO)NC(=O)[C@@H](N)Cc1c[nH]cn1)[C@@H](C)O)[C@@H](C)O)C(=O)N[C@@H](CCCNC(=N)N)C(=O)N[C@@H](CCCNC(=N)N)C(=O)N[C@@H](C)C(=O)N[C@@H](CCC(N)=O)C(=O)N[C@@H](CC(=O)O)C(=O)N[C@@H](Cc1ccccc1)C(=O)N[C@H](C(=O)N[C@@H](CCC(N)=O)C(=O)N[C@@H](Cc1c[nH]c2ccccc12)C(=O)N[C@@H](CC(C)C)C(=O)N[C@@H](CC(C)C)C(=O)N[C@@H](CC(N)=O)C(=O)N[C@H](C(=O)NCC(=O)NCC(=O)N1CCC[C@H]1C(=O)N[C@@H](CO)C(=O)N[C@@H](CO)C(=O)NCC(=O)N[C@@H](C)C(=O)N1CCC[C@H]1C(=O)N1CCC[C@H]1C(=O)N1CCC[C@H]1C(=O)N[C@@H](CO)C(N)=O)[C@@H](C)O)C(C)C)C(=O)O | refers to: ALT | Sprague-Dawley rat, male | subcutaneous, 100 µg/kg once daily, 14 days |  | serum enzyme activity | 45 ± 17.3 U/L |
| CCn1ccc(-c2cc(-c3cnn(C)c3)cc([C@@H](C)NC(=O)c3cc(OCCN(C)C)ccc3C)c2)n1 |  | C57BL/6J mice, male, plasma | iv, 10 mg/kg |  | MRT(0-inf) | 1.76 h |
| N=C(N)NCCC[C@H](NC(=O)[C@H](CCCNC(=N)N)NC(=O)[C@H](CCCNC(=N)N)NC(=O)[C@H](CCC(N)=O)NC(=O)[C@H](CCCNC(=N)N)NC(=O)[C@H](CCCNC(=N)N)NC(=O)[C@H](CCCCN)NC(=O)[C@H](CCCCN)NC(=O)[C@H](CCCNC(=N)N)NC(=O)CNC(=O)[C@H](Cc1ccc(O)cc1)NC(=O)[C@H](Cc1ccccc1)NC(=O)[C@H](Cc1ccccc1)NC(=O)[C@H](Cc1ccccc1)NC(=O)Cc1ccc2ccccc2c1)C(=O)O |  | C57BL/6 mice | intraperitoneal, 10 mg/kg, 2 h | direction not given | health score | 5 |
| CCN1CC2(COC)C(O)CC(OC)C34C5CC6(O)C(OC)C(O)C(O)(C5C6OC(=O)c5ccccc5)C(C(OC)C23)C14 (stereo not drawn) |  | Sprague-Dawley rat, plasma | oral, dose not given, in PCW extract |  | MRT(0-t) | 5.88 ± 1.58 h |
| O=C1CC[C@H](N2Cc3cc(N4CCNCC4)ccc3C2=O)C(=O)N1 |  | male Sprague-Dawley rat, pooled plasma | oral, 20 mg/kg |  | share of plasma AUC(0-72h) | 15% |
| CC(=O)NCCCC[C@@H]1NC(=O)[C@H](Cc2c[nH]c3c(C)cccc23)NC(=O)[C@H]([C@@H](C)O)NC(=O)[C@H](CC(N)=O)NC(=O)[C@@H](NC(C)=O)C(C)(C)SSC(C)(C)[C@@H](C(=O)N[C@@H](Cc2ccc(OCCN)cc2)C(=O)N[C@@H](Cc2ccc3ccccc3c2)C(=O)NC2(C(=O)N[C@@H](CCC(=O)O)C(=O)N[C@@H](CC(N)=O)C(=O)N[C@@H](Cc3cccnc3)C(=O)N(C)CC(N)=O)CCOCC2)NC1=O | equilibrium dialysis | human, plasma | 0.01 µM |  | plasma protein binding | 55.2 ± 0.6% |
| C/C(=N\OCCCN1CCCCC1)c1ccc(C(F)(F)F)cc1 |  | mouse, plasma | oral, 50 mg/kg twice daily, day 1 |  | AUC(0-t) | 3420 ± 683 ng·h/mL |
| Cc1nnc(-c2ccc(CC(=O)NCCCC[C@H](NC(=O)c3ccc(OCc4ccc(B(O)O)cc4)c(-c4nc5ccccc5c(=O)[nH]4)c3)C(=O)NCC(=O)NCC(=O)NCC(=O)N[C@@H](Cc3ccccc3)C(=O)N[C@@H](Cc3ccccc3)C(=O)O)cc2)nn1 | UPLC-MS/MS | human serum | 100 µM, 4 h, 37 °C |  | remaining compound | 69.8% |
| CSCC[C@H](N)C(=O)N[C@@H](C)C(=O)N[C@@H](CCCNC(=N)N)C(=O)N[C@@H](CCCNC(=N)N)C(=O)N[C@@H](CC(=O)O)C(=O)N[C@@H](CCCCN)C(=O)N[C@H](C(=O)N[C@@H](CC(=O)O)C(=O)N[C@@H](Cc1ccccc1)C(=O)N[C@@H](C)C(=O)N[C@@H](CCCNC(=N)N)C(=O)N[C@@H](CCCNC(=N)N)C(=O)N[C@@H](CCCNC(=N)N)C(=O)N[C@@H](CCCNC(=N)N)C(=O)NCCCCCC(=O)NCCCCC(NC(=O)CCCCCNC(=O)[C@H](CCCNC(=N)N)NC(=O)[C@H](CCCNC(=N)N)NC(=O)[C@H](CCCNC(=N)N)NC(=O)[C@H](CCCNC(=N)N)NC(=O)[C@H](C)NC(=O)[C@H](Cc1ccccc1)NC(=O)[C@H](CC(=O)O)NC(=O)[C@@H](NC(=O)[C@H](CCCCN)NC(=O)[C@H](CC(=O)O)NC(=O)[C@H](CCCNC(=N)N)NC(=O)[C@H](CCCNC(=N)N)NC(=O)[C@H](C)NC(=O)[C@@H](N)CCSC)[C@@H](C)O)C(=O)NCCCCC(NC(=O)C(CCCCNC(=O)CCCCCNC(=O)[C@H](CCCNC(=N)N)NC(=O)[C@H](CCCNC(=N)N)NC(=O)[C@H](CCCNC(=N)N)NC(=O)[C@H](CCCNC(=N)N)NC(=O)[C@H](C)NC(=O)[C@H](Cc1ccccc1)NC(=O)[C@H](CC(=O)O)NC(=O)[C@@H](NC(=O)[C@H](CCCCN)NC(=O)[C@H](CC(=O)O)NC(=O)[C@H](CCCNC(=N)N)NC(=O)[C@H](CCCNC(=N)N)NC(=O)[C@H](C)NC(=O)[C@@H](N)CCSC)[C@@H](C)O)NC(=O)CCCCCNC(=O)[C@H](CCCNC(=N)N)NC(=O)[C@H](CCCNC(=N)N)NC(=O)[C@H](CCCNC(=N)N)NC(=O)[C@H](CCCNC(=N)N)NC(=O)[C@H](C)NC(=O)[C@H](Cc1ccccc1)NC(=O)[C@H](CC(=O)O)NC(=O)[C@@H](NC(=O)[C@H](CCCCN)NC(=O)[C@H](CC(=O)O)NC(=O)[C@H](CCCNC(=N)N)NC(=O)[C@H](CCCNC(=N)N)NC(=O)[C@H](C)NC(=O)[C@@H](N)CCSC)[C@@H](C)O)C(N)=O)[C@@H](C)O (stereo partly drawn) |  | C57BL/6 mouse female, thymus | dose not given, 6 h | reference: total | mean tissue distribution | 0.99% |
| COc1cc2ncnc(Oc3ccc(Nc4nccc5[nH]cc(-c6ccc(F)cc6)c(=O)c45)cc3F)c2cc1OC | general toxicity | Sprague-Dawley rat | oral, multiple doses, once daily |  | MTD | 20 mg/kg/day |
| CC(C)C[C@@H](NC(=O)[C@@H](CCCNC(=N)N)NC(=O)[C@@H](Cc1c[nH]cn1)NC(=O)[C@@H](Cc1c[nH]c2ccccc12)NC(=O)[C@@H](Cc1c[nH]cn1)NC(=O)[C@@H](Cc1ccccc1)NC(=O)[C@H](NC(=O)[C@@H](Cc1ccc(O)cc1)NC(=O)CNC(=O)CNC(=O)CCOCCOCCOCCNC(=O)CN1CCN(CC(=O)O)CCN(CC(=O)O)CC1)[C@H](C)O)C(=O)N[C@H](CC(N)=O)C(=O)N1CCC[C@@H]1C(=O)O [gallium-68 labelled] | OLINDA/EXM | adult male human, ULI wall | extrapolated from C57BL/6 mice |  | organ absorbed dose | 0.011 ± 0.000361 mSv/MBq |
| CC[C@H](C)[C@H](NC(=O)[C@H](CCCCN)NC(=O)CNC(=O)[C@H](CC(C)C)NC(=O)[C@H](Cc1ccccc1)NC(=O)[C@H](CCCCN)NC(=O)[C@H](CO)NC(=O)[C@H](Cc1ccccc1)NC(=O)[C@H](Cc1c[nH]c2ccccc12)NC(=O)[C@H](CCC(N)=O)NC(=O)[C@@H](NC(=O)[C@H](Cc1ccccc1)NC(=O)CCCCCNC(=O)CN1CCN(CC(=O)O)CCN(CC(=O)O)CCN(CC(=O)O)CC1)C(C)C)C(=O)N[C@@H](CCC(=O)O)C(=O)N1CCC[C@H]1C(=O)N[C@@H](CC(=O)O)C(=O)N[C@H](C(=O)N[C@@H](CO)C(=O)N[C@@H](CCC(N)=O)C(=O)N[C@H](C(=O)N[C@@H](CCC(N)=O)C(=O)N[C@@H](CC(=O)O)C(=O)N1CCC[C@H]1C(=O)N[C@@H](CC(N)=O)C(=O)N[C@@H](CC(=O)O)C(=O)N[C@@H](CCC(N)=O)C(=O)N[C@@H](Cc1ccc(O)cc1)C(=O)N[C@@H](CCC(=O)O)C(=O)N1CCC[C@H]1C(=O)N[C@@H](Cc1ccccc1)C(=O)O)C(C)C)C(C)C [copper-64 labelled] |  | C57BL/6 mice, spleen | added: LPS 3 mg/kg intratracheal |  | tissue uptake | 1.38 ± 0.2 %ID/g |
| CN1Cc2cc(Cl)ccc2-n2c(nnc2C2CCN(c3cccc([18F])n3)CC2)C1 | PET two-tissue compartment model | rhesus monkey, cerebellum | intravenous, dose not given, 60 min scan, baseline scan |  | total volume of distribution | 0.82 ± 0.29 mL/cm3 |
| CC[C@H](C)[C@H](NC(=O)[C@H](Cc1ccccc1)NC(=O)[C@H](CCC(=O)O)NC(=O)[C@H](CCCNC(=N)N)NC(=O)[C@@H](NC(=O)[C@H](C)NC(=O)[C@H](CCC(=O)O)NC(=O)[C@H](CCC(=O)O)NC(=O)[C@H](CCC(=O)O)NC(=O)[C@H](CC(C)C)NC(=O)[C@H](Cc1ccc(O)cc1)NC(=O)[C@H](CCCCN)NC(=O)[C@H](CO)NC(=O)[C@H](CC(C)C)NC(=O)[C@H](CC(=O)O)NC(=O)[C@H](CO)NC(=O)[C@@H](NC(=O)[C@H](Cc1ccccc1)NC(=O)[C@@H](NC(=O)CNC(=O)[C@H](CCC(N)=O)NC(=O)[C@@H](CO)NC(=O)[C@@H](N)Cc1c[nH]cn1)[C@@H](C)O)[C@@H](C)O)C(C)C)C(=O)N[C@@H](C)C(=O)N[C@@H](Cc1c[nH]c2ccccc12)C(=O)N[C@@H](CC(C)C)C(=O)N[C@@H](CCCCN)C(=O)N[C@@H](CC(N)=O)C(=O)NCC(=O)NCC(=O)N1CCC[C@H]1C(=O)N[C@@H](CO)C(=O)N[C@@H](Cc1ccc(O)cc1)C(=O)N[C@@H](CO)C(=O)N[C@@H](CCSC)C(=O)N[C@@H](CCC(=O)O)C(=O)N[C@@H](Cc1c[nH]cn1)C(=O)N[C@@H](Cc1ccccc1)C(=O)N[C@@H](CCCNC(=N)N)C(=O)N[C@@H](Cc1c[nH]c2ccccc12)C(=O)NCC(=O)N[C@@H](CCCCN)C(=O)N1CCC[C@H]1C(=O)N[C@H](C(N)=O)C(C)C |  | DIO male Wistar rats, serum | dose not given, 10 weeks, fasted |  | AST | 106 ± 8 U/L |
| C=C/C=C/C[C@@H](C)[C@@H](O)[C@H]1C(=O)N[C@@H](CC)C(=O)N(C)CC(=O)N(C)[C@@H](CC(C)C)C(=O)N[C@@H](C(C)C)C(=O)N(C)[C@@H](CC(C)C)C(=O)N[C@@H](C)C(=O)N[C@H](C)C(=O)N(C)[C@@H](CC(C)C)C(=O)N(C)[C@@H](CC(C)C)C(=O)N(C)[C@@H](C(C)C)C(=O)N1C |  | male Wistar Kyoto rat | intraperitoneal, 0.5 mg/kg/day, day 28, at sacrifice |  | body weight | 310 ± 10 g |
| O=C1NC2(CC2)COc2ncc(F)cc2[C@H]2COCCN2c2ccn3ncc1c3n2 |  | Sprague-Dawley rats, male, blood | oral, 5 mg/kg/day, end of recovery, 4-week subacute toxicity |  | basophil percentage | 0.08 ± 0.04% |
| C#Cc1c(F)ccc2cc(O)cc(-c3ncc4c(N5CC6CCC(C5)N6C(=O)OC(OC(=O)CCC)C5CCC5)nc(OC[C@@]56CCCN5C[C@H](F)C6)nc4c3F)c12 (stereo partly drawn) | refers to: prodrug | mouse whole blood | 1 µM |  | t1/2 | 53.4 s |
| CC(C)[C@H](NC(=O)[C@H](Cc1c[nH]c2ccccc12)NC(=O)[C@H](CCCNC(=N)N)NC(=O)[C@H](CCCNC(=N)N)NC(=O)[C@@H](NC(=O)[C@@H](NC(=O)[C@H](CCCNC(=N)N)NC(=O)[C@@H](NC(=O)[C@@H](NC(=O)[C@H](CCCNC(=N)N)NC(=O)[C@H](CCCNC(=N)N)NC(=O)[C@@H](NC(=O)[C@H](Cc1c[nH]c2ccccc12)NC(=O)[C@H](CCCNC(=N)N)NC(=O)[C@H](CCCNC(=N)N)NC(=O)[C@@H](NC(=O)[C@H](CCCNC(=N)N)NC(=O)[C@H](CCCNC(=N)N)NC(=O)[C@@H](NC(=O)[C@H](Cc1c[nH]c2ccccc12)NC(=O)[C@H](CCCNC(=N)N)NC(=O)[C@@H](N)CCCNC(=N)N)C(C)C)C(C)C)C(C)C)C(C)C)C(C)C)C(C)C)C(C)C)C(=O)N[C@@H](CCCNC(=N)N)C(=O)N[C@@H](CCCNC(=N)N)C(=O)O |  | mice | intravenous, 14 days observation, 5 daily doses |  | MTD | 15 mg/kg |

A few entries again:
| SMILES | test | system | conditions | scale | endpoint | value |
| --- | --- | --- | --- | --- | --- | --- |
| O=C1NC2(CC2)COc2ncc(F)cc2[C@H]2COCCN2c2ccn3ncc1c3n2 |  | Sprague-Dawley rats, male, blood | oral, 5 mg/kg/day, end of recovery, 4-week subacute toxicity |  | basophil percentage | 0.08 ± 0.04% |
